Measured values gathered from unrelated publications.
± gives the spread as reported. ≈ marks a conversion by molar mass, not a printed value.

Compound | organism | assay | system | setting | measurement | value
O=C(NC12CC3CC(CC(C3)C1)C2)c1cc2cc(Cl)ccc2[nH]1 | Mycobacterium tuberculosis variant bovis BCG | microbial growth | BCG | – | MIC | 0.8 µM (≈ 0.263 µg/mL)
O=C(CNc1ccc(I)cc1)N1CCCC2=CC3CC(CN4CCCCC34)C21 (stereo not drawn) | vesicular stomatitis virus | pseudovirus entry | – | VSV G pseudovirus | EC50 | 50.2 µM
Cc1cccc(-c2nc(Nc3ccncn3)c3c(C)csc3n2)n1 | Moraxella catarrhalis | microbial growth, broth dilution | 1502 | – | MIC | 0.5 µM (≈ 0.167 µg/mL)
Cc1ccc(NCC(=O)N2CCCC3=CC4CC(CN5CCCCC45)C32)cc1 (stereo not drawn) | vesicular stomatitis virus | pseudovirus entry | – | VSV G pseudovirus | EC50 | > 267 µM
Cc1nc([C@H](NC(=O)c2ccc(-c3ccc(Cl)cc3)[nH]2)[C@H]2CCCCN2)sc1CO | vesicular stomatitis virus | viral entry | VSV-G pseudovirus | – | IC50 | 6.4 ± 0.5 µM
COc1ccc2nc(C)cc(OCC(=O)Nc3cc(C)cc(C)c3)c2c1 | Mycobacterium tuberculosis variant bovis BCG | microbial growth | THP-1, BCG | intracellular | MIC | > 10 µM
CCC(=C(c1ccc(Cl)cc1)c1ccc(OCCN2CCCCC2)cc1)c1ccccc1 | influenza A virus H1N1 | cytopathic effect, visual CPE | MDCK | – | EC50 | > 2.8 µg/mL
O=C(CNc1ccc(OC(F)(F)F)cc1)N1CCCC2=CC3CC(CN4CCCCC34)C21 (stereo not drawn) | vesicular stomatitis virus | pseudovirus entry | – | VSV G pseudovirus | EC50 | 47.6 µM
c1cc2c(s1)CCOC21CCN(Cc2ccc3c(c2)OCCO3)CC1 | Mycobacterium tuberculosis variant bovis BCG | microbial growth | THP-1, BCG | intracellular | MIC | 0.4 µM (≈ 0.143 µg/mL)
Cc1ccccc1CN1CCCC2=CC3CC(CN4CCCCC34)C21 (stereo not drawn) | vesicular stomatitis virus | pseudovirus entry | – | VSV G pseudovirus | EC50 | 25.4 µM
CC(=C(c1ccc(Cl)cc1)c1ccc(OCCN(C)C)cc1)c1ccc(Cl)cc1 | influenza A virus H1N1 | cytopathic effect, visual CPE | MDCK | – | EC50 | > 0.56 µg/mL
Cc1cccc(-c2nc(Nc3ccncn3)c3sccc3n2)n1 | Mycobacterium tuberculosis variant bovis BCG | microbial growth | THP-1, BCG | intracellular | MIC | > 10 µM
COc1ccc(CC(C)=C(c2ccc(Cl)cc2)c2ccc(OCCN3CCCC3)cc2)cc1 | influenza A virus H1N1 | cytopathic effect, visual CPE | MDCK | – | EC50 | > 3.2 µg/mL
CC[C@H](C)[C@H](NC(=O)[C@H](CCCNC(=N)N)NC(=O)[C@H](CCCCN)NC(=O)[C@H](CC(C)C)NC(=O)[C@H](CC(C)C)NC(=O)CN)C(=O)N[C@@H](CCCCN)C(=O)N[C@H](C(=O)N[C@@H](CC(C)C)C(=O)N[C@@H](CC(C)C)C(=O)NCCCC[C@H](NC(=O)[C@H](CCCCNC(=O)[C@H](CC(C)C)NC(=O)[C@H](CC(C)C)NC(=O)[C@@H](NC(=O)[C@H](CCCCN)NC(=O)[C@@H](NC(=O)[C@H](CCCNC(=N)N)NC(=O)[C@H](CCCCN)NC(=O)[C@H](CC(C)C)NC(=O)[C@H](CC(C)C)NC(=O)CN)[C@@H](C)CC)[C@@H](C)O)NC(=O)[C@H](CC(C)C)NC(=O)[C@H](CC(C)C)NC(=O)[C@@H](NC(=O)[C@H](CCCCN)NC(=O)[C@@H](NC(=O)[C@H](CCCNC(=N)N)NC(=O)[C@H](CCCCN)NC(=O)[C@H](CC(C)C)NC(=O)[C@H](CC(C)C)NC(=O)CN)[C@@H](C)CC)[C@@H](C)O)C(N)=O)[C@@H](C)O | five bacterial species | bacterial growth | – | – | geometric mean MIC | 4.59 µM
COc1ccc2nc(C)cc(OCC(=O)Nc3ccccc3OC)c2c1 | Mycobacterium tuberculosis variant bovis BCG | microbial growth | BCG | – | MIC | 1.4 µM (≈ 0.493 µg/mL)
CC(C)C[C@H](NC(=O)[C@H](Cc1c[nH]cn1)NC(=O)[C@H](Cc1ccc(O)cc1)NC(=O)[C@H](CCCNC(=N)N)NC(=O)[C@H](Cc1ccc(O)cc1)NC(=O)[C@H](CCCCN)NC(=O)[C@H](CCCCN)NC(=O)c1ccc(CN/C(=N/C(=O)c2ccccc2)Nc2ccc(Br)cc2)cc1)C(=O)N[C@@H](CCCCN)C(=O)N1CCC[C@H]1C(=O)N[C@@H](Cc1ccccc1)C(=O)NCCCC[C@H](NC(=O)[C@H](Cc1ccccc1)NC(=O)[C@@H]1CCCN1C(=O)[C@H](CCCCN)NC(=O)[C@H](CC(C)C)NC(=O)[C@H](Cc1c[nH]cn1)NC(=O)[C@H](Cc1ccc(O)cc1)NC(=O)[C@H](CCCNC(=N)N)NC(=O)[C@H](Cc1ccc(O)cc1)NC(=O)[C@H](CCCCN)NC(=O)[C@H](CCCCN)NC(=O)c1ccc(CN/C(=N/C(=O)c2ccccc2)Nc2ccc(Br)cc2)cc1)C(N)=O | Leishmania amazonensis | parasite growth | – | 72 h, promastigote | IC50 | 6.25 µM
O=C(CN1CCCC2=CC3CC(CN4CCCCC34)C21)Nc1cc(Br)ccc1Br (stereo not drawn) | vesicular stomatitis virus | pseudovirus entry | – | VSV G pseudovirus | EC50 | 40.3 µM
CCC(=C(c1ccc(Cl)cc1)c1ccc(OCCN2CCCCCC2)cc1)c1ccccc1 | influenza A virus H1N1 | cytopathic effect, visual CPE | MDCK | – | EC50 | > 2.4 µg/mL
CSc1ccc(-c2ccc(Cn3ccnc3)cc2)s1 | Mycobacterium tuberculosis variant bovis BCG | microbial growth | BCG | – | MIC50 | 1.1 µg/mL (≈ 3.84 µM)
CCCC(=O)NCC(=O)N[C@@H](CC(C)C)C(=O)N[C@@H](CC(C)C)C(=O)N[C@@H](CCCCN)C(=O)N[C@@H](CCCNC(=N)N)C(=O)N[C@H](C(=O)N[C@@H](CCCCN)C(=O)N[C@H](C(=O)N[C@@H](CC(C)C)C(=O)N[C@@H](CC(C)C)C(=O)NCCCC[C@H](NC(=O)[C@H](CCCCNC(=O)[C@H](CC(C)C)NC(=O)[C@H](CC(C)C)NC(=O)[C@@H](NC(=O)[C@H](CCCCN)NC(=O)[C@@H](NC(=O)[C@H](CCCNC(=N)N)NC(=O)[C@H](CCCCN)NC(=O)[C@H](CC(C)C)NC(=O)[C@H](CC(C)C)NC(=O)CNC(=O)CCC)[C@@H](C)CC)[C@@H](C)O)NC(=O)[C@H](CC(C)C)NC(=O)[C@H](CC(C)C)NC(=O)[C@@H](NC(=O)[C@H](CCCCN)NC(=O)[C@@H](NC(=O)[C@H](CCCNC(=N)N)NC(=O)[C@H](CCCCN)NC(=O)[C@H](CC(C)C)NC(=O)[C@H](CC(C)C)NC(=O)CNC(=O)CCC)[C@@H](C)CC)[C@@H](C)O)C(N)=O)[C@@H](C)O)[C@@H](C)CC | five bacterial species | bacterial growth | – | – | geometric mean MIC | 3.48 µM
Cc1cn(C2CC(N(C)C)C(CO)O2)c(=O)[nH]c1=O (stereo not drawn) | vesicular stomatitis virus | viral replication | HEL | – | EC50 | > 0.37 µM
CCCC(=O)NCC(=O)N[C@@H](CC(C)C)C(=O)N[C@@H](CC(C)C)C(=O)N[C@@H](CCCCN)C(=O)N[C@@H](CCCNC(=N)N)C(=O)N[C@H](C(=O)N[C@@H](CCCCN)C(=O)N[C@H](C(=O)N[C@@H](CC(C)C)C(=O)N[C@@H](CC(C)C)C(=O)NCCCC[C@H](NC(=O)[C@H](CC(C)C)NC(=O)[C@H](CC(C)C)NC(=O)[C@@H](NC(=O)[C@H](CCCCN)NC(=O)[C@@H](NC(=O)[C@H](CCCNC(=N)N)NC(=O)[C@H](CCCCN)NC(=O)[C@H](CC(C)C)NC(=O)[C@H](CC(C)C)NC(=O)CNC(=O)CCC)[C@@H](C)CC)[C@@H](C)O)C(N)=O)[C@@H](C)O)[C@@H](C)CC | five bacterial species | bacterial growth | – | – | geometric mean MIC | 6.06 µM
CCC(=C(c1ccc(Cl)cc1)c1ccc(OCCN(CC)CC)cc1)c1ccc(OC)cc1 | influenza A virus H1N1 | cytopathic effect, visual CPE | MDCK | – | EC50 | > 3.2 µg/mL
COc1cccc(CN2CCCC3=CC4CC(CN5CCCCC45)C32)c1 (stereo not drawn) | vesicular stomatitis virus | pseudovirus entry | – | VSV G pseudovirus | EC50 | 15.9 µM
CCCCCCCCCC(=O)NCC(=O)N[C@@H](CC(C)C)C(=O)N[C@@H](CC(C)C)C(=O)N[C@@H](CCCCN)C(=O)N[C@@H](CCCNC(=N)N)C(=O)N[C@H](C(=O)N[C@@H](CCCCN)C(=O)N[C@H](C(=O)N[C@@H](CC(C)C)C(=O)N[C@@H](CC(C)C)C(N)=O)[C@@H](C)O)[C@@H](C)CC | five bacterial species | bacterial growth | – | – | geometric mean MIC | 10.6 µM
c1cn(Cc2ccc(-c3ccc4occc4c3)cc2)cn1 | Mycobacterium tuberculosis variant bovis BCG | microbial growth | BCG | – | MIC50 | 0.9 µg/mL (≈ 3.28 µM)
CCCCCC(=O)NCC(=O)N[C@@H](CC(C)C)C(=O)N[C@@H](CC(C)C)C(=O)N[C@@H](CCCCN)C(=O)N[C@@H](CCCNC(=N)N)C(=O)N[C@H](C(=O)N[C@@H](CCCCN)C(=O)N[C@H](C(=O)N[C@@H](CC(C)C)C(=O)N[C@@H](CC(C)C)C(=O)NCCCC[C@H](NC(=O)[C@H](CC(C)C)NC(=O)[C@H](CC(C)C)NC(=O)[C@@H](NC(=O)[C@H](CCCCN)NC(=O)[C@@H](NC(=O)[C@H](CCCNC(=N)N)NC(=O)[C@H](CCCCN)NC(=O)[C@H](CC(C)C)NC(=O)[C@H](CC(C)C)NC(=O)CNC(=O)CCCCC)[C@@H](C)CC)[C@@H](C)O)C(=O)NCCCC[C@H](NC(=O)[C@H](CCCCNC(=O)[C@H](CC(C)C)NC(=O)[C@H](CC(C)C)NC(=O)[C@@H](NC(=O)[C@H](CCCCN)NC(=O)[C@@H](NC(=O)[C@H](CCCNC(=N)N)NC(=O)[C@H](CCCCN)NC(=O)[C@H](CC(C)C)NC(=O)[C@H](CC(C)C)NC(=O)CNC(=O)CCCCC)[C@@H](C)CC)[C@@H](C)O)NC(=O)[C@H](CC(C)C)NC(=O)[C@H](CC(C)C)NC(=O)[C@@H](NC(=O)[C@H](CCCCN)NC(=O)[C@@H](NC(=O)[C@H](CCCNC(=N)N)NC(=O)[C@H](CCCCN)NC(=O)[C@H](CC(C)C)NC(=O)[C@H](CC(C)C)NC(=O)CNC(=O)CCCCC)[C@@H](C)CC)[C@@H](C)O)C(N)=O)[C@@H](C)O)[C@@H](C)CC | five bacterial species | bacterial growth | – | – | geometric mean MIC | 32 µM
CC[C@H](C)[C@H](NC(=O)[C@@H](N)CCCNC(=N)N)C(=O)N[C@@H](CC(N)=O)C(=O)N[C@@H](CC(N)=O)C(=O)N[C@H](C(=O)N1C[C@@H](n2cc(C3=CC=C[CH]3[Fe][CH]3C=CC=C3)nn2)C[C@H]1C(=O)N[C@@H](Cc1c[nH]c2ccccc12)C(=O)N[C@@H](CO)C(=O)N[C@@H](CCC(=O)O)C(=O)N[C@@H](C)C(=O)N[C@@H](CCSC)C(=O)N[C@@H](CCSC)C(=O)NCCC(=O)N[C@@H](CCC(N)=O)C(=O)NCCC(=O)N[C@@H](CS)C(N)=O)[C@@H](C)CC (stereo partly drawn) | VSV-G pseudotyped virus | – | – | concentration not given | p24 release | no effect
CC[C@H](C)[C@H](NC(=O)[C@H](CCCNC(=N)N)NC(=O)[C@H](CCCCN)NC(=O)[C@H](CC(C)C)NC(=O)[C@H](CC(C)C)NC(=O)CN)C(=O)N[C@@H](CCCCN)C(=O)N[C@H](C(=O)N[C@@H](CC(C)C)C(=O)N[C@@H](CC(C)C)C(=O)NCCCC[C@H](NC(=O)[C@H](CC(C)C)NC(=O)[C@H](CC(C)C)NC(=O)[C@@H](NC(=O)[C@H](CCCCN)NC(=O)[C@@H](NC(=O)[C@H](CCCNC(=N)N)NC(=O)[C@H](CCCCN)NC(=O)[C@H](CC(C)C)NC(=O)[C@H](CC(C)C)NC(=O)CN)[C@@H](C)CC)[C@@H](C)O)C(N)=O)[C@@H](C)O | five bacterial species | bacterial growth | – | – | geometric mean MIC | 8 µM
COc1ccc(CC(C)=C(c2ccc(Cl)cc2)c2ccc(OCCN3CCOCC3)cc2)cc1 | influenza A virus H1N1 | cytopathic effect, visual CPE | MDCK | – | EC50 | > 2.2 µg/mL
